Measurements collected from several papers.
Parts stem from different laboratories: compare values within a part only.
Chain of UniProt P49841 (whole entry, looked up): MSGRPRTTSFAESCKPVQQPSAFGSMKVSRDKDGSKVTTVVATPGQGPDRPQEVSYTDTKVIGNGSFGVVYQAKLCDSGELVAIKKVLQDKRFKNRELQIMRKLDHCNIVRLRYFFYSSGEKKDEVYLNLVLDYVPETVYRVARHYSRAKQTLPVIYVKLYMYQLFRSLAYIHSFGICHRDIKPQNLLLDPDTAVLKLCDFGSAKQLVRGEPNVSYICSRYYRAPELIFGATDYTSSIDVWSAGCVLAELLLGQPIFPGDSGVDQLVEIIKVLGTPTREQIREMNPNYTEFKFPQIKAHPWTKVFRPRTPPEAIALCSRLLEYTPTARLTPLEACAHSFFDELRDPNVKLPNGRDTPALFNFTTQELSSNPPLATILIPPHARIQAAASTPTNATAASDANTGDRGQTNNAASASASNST
Chain of UniProt P48730 (whole entry, looked up): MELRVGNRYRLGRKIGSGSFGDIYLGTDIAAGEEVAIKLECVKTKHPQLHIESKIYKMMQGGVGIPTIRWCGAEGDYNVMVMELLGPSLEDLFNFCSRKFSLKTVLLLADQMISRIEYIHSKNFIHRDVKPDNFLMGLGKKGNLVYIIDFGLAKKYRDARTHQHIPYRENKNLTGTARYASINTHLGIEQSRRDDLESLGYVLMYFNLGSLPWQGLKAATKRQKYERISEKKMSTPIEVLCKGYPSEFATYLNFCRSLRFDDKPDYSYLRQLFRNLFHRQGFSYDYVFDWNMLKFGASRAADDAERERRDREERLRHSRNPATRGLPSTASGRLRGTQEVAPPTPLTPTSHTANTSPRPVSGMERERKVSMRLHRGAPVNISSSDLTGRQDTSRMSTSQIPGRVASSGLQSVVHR
Chain of UniProt P28482 (whole entry, looked up): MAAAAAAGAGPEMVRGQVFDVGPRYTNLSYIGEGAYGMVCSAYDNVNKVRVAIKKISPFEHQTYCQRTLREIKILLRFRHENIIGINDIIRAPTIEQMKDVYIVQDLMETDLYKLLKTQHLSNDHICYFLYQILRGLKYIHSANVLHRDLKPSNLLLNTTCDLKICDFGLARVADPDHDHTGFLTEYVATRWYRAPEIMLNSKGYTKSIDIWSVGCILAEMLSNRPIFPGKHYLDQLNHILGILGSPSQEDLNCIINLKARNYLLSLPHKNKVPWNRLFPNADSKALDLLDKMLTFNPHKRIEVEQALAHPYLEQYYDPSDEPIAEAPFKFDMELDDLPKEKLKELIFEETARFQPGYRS
Chain of UniProt Q14680 (whole entry, looked up): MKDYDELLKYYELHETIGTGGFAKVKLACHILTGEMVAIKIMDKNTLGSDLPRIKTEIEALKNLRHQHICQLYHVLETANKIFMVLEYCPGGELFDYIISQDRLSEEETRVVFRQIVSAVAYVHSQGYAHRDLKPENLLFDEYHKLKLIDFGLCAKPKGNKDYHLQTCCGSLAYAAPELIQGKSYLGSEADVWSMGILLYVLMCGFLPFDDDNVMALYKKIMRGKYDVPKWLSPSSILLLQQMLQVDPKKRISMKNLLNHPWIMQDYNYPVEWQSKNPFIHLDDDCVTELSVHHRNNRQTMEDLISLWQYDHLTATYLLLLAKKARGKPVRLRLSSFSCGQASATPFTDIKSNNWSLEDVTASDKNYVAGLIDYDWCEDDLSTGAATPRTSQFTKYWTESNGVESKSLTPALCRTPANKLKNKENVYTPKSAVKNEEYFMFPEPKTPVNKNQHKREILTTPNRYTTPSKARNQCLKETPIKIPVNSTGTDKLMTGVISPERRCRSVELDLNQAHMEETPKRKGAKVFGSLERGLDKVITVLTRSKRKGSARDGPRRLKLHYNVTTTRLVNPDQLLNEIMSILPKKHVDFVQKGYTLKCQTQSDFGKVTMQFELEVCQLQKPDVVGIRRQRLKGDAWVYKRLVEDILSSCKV
Chain of UniProt P05979 (whole entry, looked up): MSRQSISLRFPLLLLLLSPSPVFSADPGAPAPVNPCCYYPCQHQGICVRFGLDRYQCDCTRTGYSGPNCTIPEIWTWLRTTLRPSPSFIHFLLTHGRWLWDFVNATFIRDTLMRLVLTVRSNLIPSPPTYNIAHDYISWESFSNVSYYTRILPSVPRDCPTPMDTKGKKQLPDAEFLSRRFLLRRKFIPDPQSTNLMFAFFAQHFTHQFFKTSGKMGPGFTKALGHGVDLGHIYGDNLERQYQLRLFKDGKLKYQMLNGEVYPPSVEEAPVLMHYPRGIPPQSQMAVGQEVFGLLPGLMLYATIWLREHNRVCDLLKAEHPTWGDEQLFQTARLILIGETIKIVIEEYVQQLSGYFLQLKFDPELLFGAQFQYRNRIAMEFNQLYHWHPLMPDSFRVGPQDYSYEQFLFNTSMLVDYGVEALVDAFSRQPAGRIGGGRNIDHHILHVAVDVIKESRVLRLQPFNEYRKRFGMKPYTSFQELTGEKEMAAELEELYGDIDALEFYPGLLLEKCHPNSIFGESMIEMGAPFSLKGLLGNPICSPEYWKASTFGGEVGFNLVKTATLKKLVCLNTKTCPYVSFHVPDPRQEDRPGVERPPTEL
Chain of UniProt Q9P286 (whole entry, looked up): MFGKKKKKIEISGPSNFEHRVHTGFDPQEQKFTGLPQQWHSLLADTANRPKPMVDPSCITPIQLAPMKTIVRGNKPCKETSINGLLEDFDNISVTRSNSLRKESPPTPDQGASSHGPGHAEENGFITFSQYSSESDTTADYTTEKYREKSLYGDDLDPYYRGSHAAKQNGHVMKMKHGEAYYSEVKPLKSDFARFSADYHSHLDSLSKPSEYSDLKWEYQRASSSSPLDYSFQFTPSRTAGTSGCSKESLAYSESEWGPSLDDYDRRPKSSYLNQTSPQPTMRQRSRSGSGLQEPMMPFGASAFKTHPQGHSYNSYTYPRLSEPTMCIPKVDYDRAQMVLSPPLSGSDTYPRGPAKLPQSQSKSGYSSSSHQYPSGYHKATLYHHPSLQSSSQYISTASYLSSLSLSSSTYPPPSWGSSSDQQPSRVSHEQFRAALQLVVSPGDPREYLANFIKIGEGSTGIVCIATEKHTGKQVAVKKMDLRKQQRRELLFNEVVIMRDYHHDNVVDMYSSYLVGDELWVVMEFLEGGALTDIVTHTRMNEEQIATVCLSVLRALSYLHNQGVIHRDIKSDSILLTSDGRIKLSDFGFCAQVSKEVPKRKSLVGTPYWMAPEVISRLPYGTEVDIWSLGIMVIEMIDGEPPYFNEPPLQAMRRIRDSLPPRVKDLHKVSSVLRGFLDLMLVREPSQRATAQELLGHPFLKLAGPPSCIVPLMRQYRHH
Chain of UniProt P08908 (whole entry, looked up): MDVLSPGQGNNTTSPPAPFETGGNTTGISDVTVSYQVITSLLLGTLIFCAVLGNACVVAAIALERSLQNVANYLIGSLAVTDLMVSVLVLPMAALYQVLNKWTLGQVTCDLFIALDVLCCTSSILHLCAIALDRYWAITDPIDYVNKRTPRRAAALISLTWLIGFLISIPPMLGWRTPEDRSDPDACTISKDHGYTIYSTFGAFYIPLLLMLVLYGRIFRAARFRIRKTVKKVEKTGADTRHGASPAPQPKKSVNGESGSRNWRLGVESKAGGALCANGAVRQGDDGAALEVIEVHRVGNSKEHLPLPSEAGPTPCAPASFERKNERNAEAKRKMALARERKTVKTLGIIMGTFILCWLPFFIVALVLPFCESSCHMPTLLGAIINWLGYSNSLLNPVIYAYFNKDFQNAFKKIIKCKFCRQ
Chain of UniProt P31749 (whole entry, looked up): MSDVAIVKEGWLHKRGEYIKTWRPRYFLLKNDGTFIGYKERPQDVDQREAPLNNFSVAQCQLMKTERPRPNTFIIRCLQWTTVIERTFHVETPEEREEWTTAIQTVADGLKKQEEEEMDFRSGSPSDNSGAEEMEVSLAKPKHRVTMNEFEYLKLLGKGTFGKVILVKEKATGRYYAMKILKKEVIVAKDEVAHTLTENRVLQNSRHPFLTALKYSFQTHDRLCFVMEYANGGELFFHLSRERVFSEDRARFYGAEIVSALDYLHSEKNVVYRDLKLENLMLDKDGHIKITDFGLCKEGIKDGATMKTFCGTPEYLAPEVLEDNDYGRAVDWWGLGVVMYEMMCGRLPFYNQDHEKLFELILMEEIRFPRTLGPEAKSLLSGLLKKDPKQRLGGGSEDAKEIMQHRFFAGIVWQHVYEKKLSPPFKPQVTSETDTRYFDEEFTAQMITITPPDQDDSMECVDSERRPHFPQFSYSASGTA
Chain of UniProt Q16539 (whole entry, looked up): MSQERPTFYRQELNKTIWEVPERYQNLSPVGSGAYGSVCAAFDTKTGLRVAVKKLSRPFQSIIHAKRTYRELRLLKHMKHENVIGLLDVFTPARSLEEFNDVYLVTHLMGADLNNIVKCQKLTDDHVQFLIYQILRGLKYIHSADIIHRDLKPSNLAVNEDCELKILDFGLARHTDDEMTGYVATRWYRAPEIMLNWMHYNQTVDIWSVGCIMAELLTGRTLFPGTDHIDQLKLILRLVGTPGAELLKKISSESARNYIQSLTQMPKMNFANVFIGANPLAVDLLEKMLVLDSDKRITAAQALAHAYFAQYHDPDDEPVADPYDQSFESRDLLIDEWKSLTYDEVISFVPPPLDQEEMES

Sample 1 — effect on: enzyme activity; action: inhibitor; tested at: 10 µM; quantity: inhibition
Target: Calcium/calmodulin-dependent protein kinase type II subunit alpha (CAMK2A, Homo sapiens, UniProt Q9UQM7)
Chain of UniProt Q9UQM7 (whole entry, looked up): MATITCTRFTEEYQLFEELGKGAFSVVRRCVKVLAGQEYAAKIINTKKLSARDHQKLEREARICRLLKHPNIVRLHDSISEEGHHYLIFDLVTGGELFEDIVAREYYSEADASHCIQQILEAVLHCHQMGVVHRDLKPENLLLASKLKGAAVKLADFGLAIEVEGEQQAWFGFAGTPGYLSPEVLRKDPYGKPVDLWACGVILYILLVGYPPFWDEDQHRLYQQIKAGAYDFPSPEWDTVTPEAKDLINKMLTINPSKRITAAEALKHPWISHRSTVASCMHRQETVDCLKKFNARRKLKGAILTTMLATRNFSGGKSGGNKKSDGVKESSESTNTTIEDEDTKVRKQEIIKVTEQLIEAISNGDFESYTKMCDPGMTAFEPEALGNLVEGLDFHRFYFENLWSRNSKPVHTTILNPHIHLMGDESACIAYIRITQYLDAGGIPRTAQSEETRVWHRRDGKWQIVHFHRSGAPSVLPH
C[C@H]1C(=O)O[C@@H]2CCN3CC=C(COC(=O)[C@](C)(O)[C@]1(C)O)[C@H]23: -4%
C=C(C)[C@H]1CN[C@H](C(=O)O)[C@H]1CC(=O)O: 25%
C[C@H]1CC[C@@H]2N(C1)C[C@H]1[C@@H]3C[C@H]4[C@@H](CC(=O)[C@H]5C[C@H](O)CC[C@@]54C)[C@@H]3CC[C@H]1[C@]2(C)O: -13%
O=c1ccc2cc(O[C@@H]3O[C@H](CO)[C@@H](O)[C@H](O)[C@H]3O)c(O)cc2o1: -8%

Sample 2 — Structure (SMILES): COc1ccc2c(c1)/C(=C/c1cnc[nH]1)C(=O)N2; effect on: enzyme activity; action: inhibitor; tested at: 0.5 µM; reference: control; quantity: remaining activity
PAK5 (Homo sapiens, UniProt Q9P286): 96.9%
DYRK1A (Homo sapiens, UniProt Q13627): 70.4%
MELK (Homo sapiens, UniProt Q14680): 36.5%

Sample 3 — cell line: mouse MPNST tumor cells; technique: high-content immunofluorescence imaging; refers to: nuclear SOX9; tested at: 10 µM; time: 12 h; setting: mean of 2 replicates; reference: DMSO control; direction: higher = more nuclear SOX9; quantity: nuclear SOX9 intensity
CN(C)[C@@H]1C(=O)C(C(N)=O)=C(O)[C@@]2(O)C(=O)C3=C(O)c4c(O)cccc4[C@@](C)(O)[C@H]3C[C@@H]12: 96.6 % of DMSO
CNCC(O)c1ccc(O)cc1 (racemic): 97.4 % of DMSO
CC[N+]1(C)CCCC(OC(=O)C(O)(c2ccccc2)c2ccccc2)C1 (stereo not drawn): 101 % of DMSO
COC(=O)C=CC(=O)NC1CCC2(O)C3Cc4ccc(O)c5c4C2(CCN3CC2CC2)C1O5 (stereo not drawn): 125 % of DMSO

Sample 4 — quantity: IC50
SMILES: COC(=O)c1cc(N(C)C(=O)c2ccn3ncc(-c4ccc(C(=O)O)cc4)c3c2)ccc1Cl
HTR1A (Homo sapiens, UniProt P08908); cell-free assay: > 30 µM
CSNK1D (Homo sapiens, UniProt P48730); enzyme activity, inhibitor: > 30 µM
PTGS1 (Ovis aries, UniProt P05979); cell-free assay: > 30 µM
MAPK14 (Homo sapiens, UniProt Q16539); enzyme activity, inhibitor: > 30 µM
MAPK1 (Homo sapiens, UniProt P28482); enzyme activity, inhibitor: > 30 µM
Estrogen receptor (ESR1, Homo sapiens, UniProt P03372); cell-free assay: > 30 µM
GSK3B (Homo sapiens, UniProt P49841); enzyme activity, inhibitor: 19.2 µM
AKT1 (Homo sapiens, UniProt P31749); enzyme activity, inhibitor: > 30 µM
CHRM1 (Homo sapiens, UniProt P11229); cell-free assay: > 30 µM

Mixed results
C[C@H](NC(=O)c1cnc2n1[C@](C)(Cc1ccc(C#N)cc1)C(=O)N2c1cc(Cl)c(F)c(Cl)c1)C(=O)NC1(c2ccccn2)CC1
inhibition (5-hydroxytryptamine receptor 2A (HTR2A, Homo sapiens, UniProt P28223); binding, radioligand binding; 10 µM): 9.3%
